Published values collected from several papers.
Compare with care: the assays were run in different laboratories. ± marks the error that the study gave.
PSMB6: Proteasome subunit beta type-6 (PSMB6, Homo sapiens, UniProt P28072)
Sequence of UniProt P28072 (whole entry, looked up): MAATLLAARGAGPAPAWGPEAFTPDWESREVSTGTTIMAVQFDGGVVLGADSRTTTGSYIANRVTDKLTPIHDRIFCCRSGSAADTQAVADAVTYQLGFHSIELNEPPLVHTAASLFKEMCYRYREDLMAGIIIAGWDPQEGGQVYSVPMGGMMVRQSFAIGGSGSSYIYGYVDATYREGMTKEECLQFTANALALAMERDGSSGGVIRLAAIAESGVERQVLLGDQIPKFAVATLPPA
HDAC8: Histone deacetylase 8 (HDAC8, Homo sapiens, UniProt Q9BY41)
Sequence of UniProt Q9BY41 (whole entry, looked up): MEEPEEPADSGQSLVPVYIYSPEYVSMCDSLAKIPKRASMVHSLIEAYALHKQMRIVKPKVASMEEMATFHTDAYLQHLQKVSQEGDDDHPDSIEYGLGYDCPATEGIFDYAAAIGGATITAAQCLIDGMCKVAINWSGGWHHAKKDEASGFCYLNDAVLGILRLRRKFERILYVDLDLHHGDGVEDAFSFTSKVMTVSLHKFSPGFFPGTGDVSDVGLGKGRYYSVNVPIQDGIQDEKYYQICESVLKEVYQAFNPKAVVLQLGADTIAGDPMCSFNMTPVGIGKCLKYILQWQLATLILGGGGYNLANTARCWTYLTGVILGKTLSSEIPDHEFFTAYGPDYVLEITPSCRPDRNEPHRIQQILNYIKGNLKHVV
PRKCA: Protein kinase C alpha type (PRKCA, Homo sapiens, UniProt P17252)
Genome polyprotein protease: Genome polyprotein, protease (Hepatitis C virus genotype 1b, UniProt O92972)
PIK3CB: Phosphatidylinositol 4,5-bisphosphate 3-kinase catalytic subunit beta isoform (PIK3CB, Homo sapiens, UniProt P42338)
Sequence of UniProt P42338 (whole entry, looked up): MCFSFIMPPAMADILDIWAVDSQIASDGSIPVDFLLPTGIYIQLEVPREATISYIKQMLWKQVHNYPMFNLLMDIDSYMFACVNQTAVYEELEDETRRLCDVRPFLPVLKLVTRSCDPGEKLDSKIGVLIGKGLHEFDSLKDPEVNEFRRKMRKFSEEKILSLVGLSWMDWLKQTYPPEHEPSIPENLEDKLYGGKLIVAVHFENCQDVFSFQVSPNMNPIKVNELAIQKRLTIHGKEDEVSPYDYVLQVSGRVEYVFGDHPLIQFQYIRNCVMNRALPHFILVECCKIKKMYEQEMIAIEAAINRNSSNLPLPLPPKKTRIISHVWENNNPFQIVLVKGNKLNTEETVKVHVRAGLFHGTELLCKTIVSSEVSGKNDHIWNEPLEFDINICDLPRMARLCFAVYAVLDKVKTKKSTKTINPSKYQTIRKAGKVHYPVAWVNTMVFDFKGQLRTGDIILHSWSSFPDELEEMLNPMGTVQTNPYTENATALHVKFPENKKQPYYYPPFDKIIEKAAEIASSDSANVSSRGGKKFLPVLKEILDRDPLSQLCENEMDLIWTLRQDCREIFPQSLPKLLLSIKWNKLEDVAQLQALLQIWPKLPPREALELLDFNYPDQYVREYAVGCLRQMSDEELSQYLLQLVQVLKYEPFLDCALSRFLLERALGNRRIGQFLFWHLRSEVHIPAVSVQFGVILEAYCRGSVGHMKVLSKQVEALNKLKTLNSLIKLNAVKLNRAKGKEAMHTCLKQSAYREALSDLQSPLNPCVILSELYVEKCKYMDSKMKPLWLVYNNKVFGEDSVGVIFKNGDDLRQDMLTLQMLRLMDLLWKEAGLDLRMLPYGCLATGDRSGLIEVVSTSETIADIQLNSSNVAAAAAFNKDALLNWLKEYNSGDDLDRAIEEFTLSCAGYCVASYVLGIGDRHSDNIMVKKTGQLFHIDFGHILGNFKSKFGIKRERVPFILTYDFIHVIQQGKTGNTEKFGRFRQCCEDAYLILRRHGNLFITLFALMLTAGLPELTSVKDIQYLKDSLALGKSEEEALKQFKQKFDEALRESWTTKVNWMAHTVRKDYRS
PARP1: Poly [ADP-ribose] polymerase 1 (PARP1, Homo sapiens, UniProt P09874)
Sequence of UniProt P09874 (whole entry, looked up): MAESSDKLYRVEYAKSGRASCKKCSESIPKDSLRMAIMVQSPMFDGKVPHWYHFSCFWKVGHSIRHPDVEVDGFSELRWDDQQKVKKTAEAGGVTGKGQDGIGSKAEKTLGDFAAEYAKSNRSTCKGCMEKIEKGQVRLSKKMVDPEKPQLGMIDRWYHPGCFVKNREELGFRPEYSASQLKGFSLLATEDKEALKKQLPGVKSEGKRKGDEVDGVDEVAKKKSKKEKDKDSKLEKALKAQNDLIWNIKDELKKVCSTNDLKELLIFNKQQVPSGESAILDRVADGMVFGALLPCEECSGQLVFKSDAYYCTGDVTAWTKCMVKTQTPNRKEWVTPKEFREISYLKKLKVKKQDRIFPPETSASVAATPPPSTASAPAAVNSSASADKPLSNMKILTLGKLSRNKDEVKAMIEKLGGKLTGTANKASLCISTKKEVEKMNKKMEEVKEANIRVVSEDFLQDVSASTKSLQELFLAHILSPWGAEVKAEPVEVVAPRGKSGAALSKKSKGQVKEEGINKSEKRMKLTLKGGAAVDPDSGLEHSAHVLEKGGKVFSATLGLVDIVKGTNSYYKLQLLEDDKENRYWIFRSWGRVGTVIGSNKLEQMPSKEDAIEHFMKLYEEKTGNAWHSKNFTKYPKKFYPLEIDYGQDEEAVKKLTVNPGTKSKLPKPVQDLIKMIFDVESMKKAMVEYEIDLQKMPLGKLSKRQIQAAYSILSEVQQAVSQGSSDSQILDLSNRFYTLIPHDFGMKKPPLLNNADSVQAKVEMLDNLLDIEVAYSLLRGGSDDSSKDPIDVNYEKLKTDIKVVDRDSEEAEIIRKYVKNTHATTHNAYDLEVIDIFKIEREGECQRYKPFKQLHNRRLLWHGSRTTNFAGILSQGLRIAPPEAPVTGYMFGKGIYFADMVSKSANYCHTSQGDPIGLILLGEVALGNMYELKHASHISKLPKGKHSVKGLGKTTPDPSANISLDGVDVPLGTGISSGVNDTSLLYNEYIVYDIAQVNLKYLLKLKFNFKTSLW
Sequence of UniProt Q12866 (whole entry, looked up): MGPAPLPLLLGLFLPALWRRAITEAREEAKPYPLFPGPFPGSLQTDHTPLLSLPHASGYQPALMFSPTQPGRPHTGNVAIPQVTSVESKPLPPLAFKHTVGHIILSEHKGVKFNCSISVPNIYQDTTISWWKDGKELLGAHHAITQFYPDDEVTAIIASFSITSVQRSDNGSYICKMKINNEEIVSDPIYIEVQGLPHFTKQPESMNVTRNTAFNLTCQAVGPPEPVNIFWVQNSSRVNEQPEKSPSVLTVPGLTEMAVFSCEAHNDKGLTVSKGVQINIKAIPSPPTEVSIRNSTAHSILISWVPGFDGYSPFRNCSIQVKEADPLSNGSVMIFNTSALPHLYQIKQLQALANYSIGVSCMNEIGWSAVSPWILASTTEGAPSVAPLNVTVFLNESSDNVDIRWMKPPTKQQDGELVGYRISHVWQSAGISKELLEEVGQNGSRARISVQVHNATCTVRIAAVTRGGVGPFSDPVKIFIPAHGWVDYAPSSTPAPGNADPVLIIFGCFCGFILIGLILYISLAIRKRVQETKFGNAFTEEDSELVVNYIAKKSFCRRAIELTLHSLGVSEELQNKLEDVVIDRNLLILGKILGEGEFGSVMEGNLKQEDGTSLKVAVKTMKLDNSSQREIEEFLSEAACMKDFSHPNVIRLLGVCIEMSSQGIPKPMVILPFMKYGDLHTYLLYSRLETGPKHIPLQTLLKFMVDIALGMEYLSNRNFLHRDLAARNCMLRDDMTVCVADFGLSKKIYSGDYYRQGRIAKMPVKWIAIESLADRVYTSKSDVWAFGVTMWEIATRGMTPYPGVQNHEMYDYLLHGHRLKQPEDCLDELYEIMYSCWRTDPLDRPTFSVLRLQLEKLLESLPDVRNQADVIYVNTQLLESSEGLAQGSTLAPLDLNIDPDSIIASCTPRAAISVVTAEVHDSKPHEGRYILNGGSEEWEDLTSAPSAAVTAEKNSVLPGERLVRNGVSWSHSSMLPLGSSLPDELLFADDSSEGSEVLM
Sequence of UniProt P08588 (whole entry, looked up): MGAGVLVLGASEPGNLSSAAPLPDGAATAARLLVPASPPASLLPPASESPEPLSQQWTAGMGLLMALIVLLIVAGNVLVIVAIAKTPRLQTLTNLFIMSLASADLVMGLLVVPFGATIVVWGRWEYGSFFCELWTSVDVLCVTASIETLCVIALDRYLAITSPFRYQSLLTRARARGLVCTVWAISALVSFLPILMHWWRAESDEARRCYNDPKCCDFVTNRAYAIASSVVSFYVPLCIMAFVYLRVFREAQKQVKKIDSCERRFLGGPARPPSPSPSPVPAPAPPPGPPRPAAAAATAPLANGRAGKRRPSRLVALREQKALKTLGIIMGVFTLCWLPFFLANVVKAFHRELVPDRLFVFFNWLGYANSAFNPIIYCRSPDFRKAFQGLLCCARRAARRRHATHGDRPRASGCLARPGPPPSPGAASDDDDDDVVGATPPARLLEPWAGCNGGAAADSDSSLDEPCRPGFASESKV
Sequence of UniProt Q07440 (whole entry, unmodified, looked up): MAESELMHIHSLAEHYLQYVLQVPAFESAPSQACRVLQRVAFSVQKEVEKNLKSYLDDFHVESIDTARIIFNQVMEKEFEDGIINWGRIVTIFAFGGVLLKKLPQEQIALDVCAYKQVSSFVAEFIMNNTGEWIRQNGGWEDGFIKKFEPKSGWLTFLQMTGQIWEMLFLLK

| Compound | target | assay | system | conditions | IC50 [nM] |
| --- | --- | --- | --- | --- | --- |
| Cc1ccc(C(=O)Nc2ccnc(S(N)(=O)=O)c2)c(N2CCCC(F)(F)CC2)n1 | Sodium channel protein type 2 subunit alpha (SCN2A, Homo sapiens, UniProt Q99250) | Nav1.2 sodium current, inhibitor, automated patch clamp | – | – | > 33800 |
| CCN(CC)CCNc1ccc(C)c2sc3ccccc3c(=O)c12 | Bcl-2-related protein A1 (Mus musculus, UniProt Q07440, C113S/P104K) | ligand displacement, FP | – | – | 300000 |
| COC1CCC(C[C@H](NC(=O)[C@H](CC(C)C)NC(=O)[C@H](Cc2ccc(CN)cc2)NC(=O)[C@H](Cc2ccccc2)N=[N+]=[N-])C(=O)[C@@]2(C)CO2)CC1 (some centres unmarked) | PSMB6 | competitive ABPP | Raji cell lysate | – | > 10000 |
| CC(C)c1ccccc1[C@@H]1CCCN1C1CC2(CCN(c3ccc(C(=O)NS(=O)(=O)c4ccc(NC[C@H]5CC[C@](C)(O)CC5)c([N+](=O)[O-])c4)c(Oc4cnc5[nH]ccc5c4)c3)CC2)C1 | Bcl-2-like protein 2 (BCL2L2, Homo sapiens, UniProt Q92843) | binding, TR-FRET competition | – | – | 1800 ± 83 |
| Nc1ncc2c(n1)-c1c([nH]c3ccc(C4=CCOCC4)cc13)CCC2 | Non-receptor tyrosine-protein kinase TYK2, JH2 (TYK2, Homo sapiens, UniProt P29597) | target engagement in cells, BRET | – | – | > 10000 |
| CNCc1ccc2c(c1)N(C(=O)OCc1c(F)c(F)c(F)c(F)c1F)[C@H](CNC(=N)N)[C@H]2NC(=O)C(=O)Nc1ccc(Cl)c(F)c1 | env (Human immunodeficiency virus 1, UniProt Q75760) | HIV-1 infection | Cf2Th-CD4/CCR5 cells | 48 h | 770 |
| Cc1ccc2c(c1)nc(NC(=O)c1cccc(C(F)(F)F)c1)n2[C@H]1CC[C@H](N)CC1 | CDC2-like kinase 1 (Trypanosoma brucei brucei, UniProt Q382U0) | enzyme activity, inhibitor, ADP-Glo | – | 10 min preincubation, together with: ATP 10 µM | > 20000 |
| C=CC(=O)N1CCN2c3nc(OC[C@@H]4C[C@@H](F)CN4C)nc4cc(-c5nc(N)cc(C)c5C(F)(F)F)c(Cl)c(c34)OC[C@@H]2C1 | GTPase KRas, GDP-bound (KRAS, Homo sapiens, UniProt P01116, G13D) | nucleotide exchange, inhibitor, TR-FRET | – | GDP-bound | 630 |
| CC(C)(C)c1ccccc1OS(=O)(=O)Oc1cccc(C(=O)NO)c1 | HDAC8 | enzyme activity, inhibitor, fluorescence | – | – | 145 |
| CCn1nc(Cl)c2c1-c1cnc(N)c(c1)O[C@H](C)c1cc(F)ccc1-c1nn(C)cc1C2 | Insulin receptor (INSR, Homo sapiens, UniProt P06213) | enzyme activity, inhibitor, radiometric | – | – | 190 |
| CC(C)(C)OC(=O)N1CCN(c2ccc3c(O)c(C(=O)NCc4ccc(C#N)nc4)ncc3n2)CC1 | Hypoxia-inducible factor 1-alpha inhibitor (HIF1AN, Homo sapiens, UniProt Q9NWT6) | enzyme activity, inhibitor, HTRF | – | together with: Fe(II) 5 µM | > 10000 |
| Cc1cc(NC2CCN(C)CC2)ccc1-c1cc2c(N3CCC[C@H](C(=O)NCc4ccc(OC(F)(F)F)cc4)C3)ncnc2[nH]1 | PRKCA | enzyme activity, inhibitor, mobility shift | – | – | 1930 |
| O=c1c2cc3ccccc3cc2[nH]c(=S)n1Cc1ccccc1 | Genome polyprotein protease | enzyme activity, inhibitor, FRET | – | – | 37200 |
| Cc1ccc(CN2C(=O)C3(c4ccccc42)C(c2ccc(F)cc2)NC2(C(=O)N(C(=O)CCc4ccccc4)c4ccccc42)N3Cc2ccc(F)cc2)cc1 (centres unmarked) | PIK3CB | enzyme activity, inhibitor, ADP detection | – | – | 49.3 |
| Cc1nc(Nc2ccc3c(c2)/C(=C/c2ccccc2)C(=O)N3)c2ccccc2n1 | PIK3CB | enzyme activity, inhibitor, ADP detection | – | – | 12 |
| CC(=O)OC1CCC2(C)C(CCC3(C)C2CC=C2C4C(C)C(C)CCC4(C(=O)O)CCC23C)C1(C)C (centres unmarked) | UDP-glucuronosyltransferase 1A8 (UGT1A8, Homo sapiens, UniProt Q9HAW9) | enzyme activity, inhibitor | – | – | > 100000 |
| CCOc1cc(CN2CCC3(CC2)CN(c2ccc(C(=O)O)cc2)C(=O)N3)c(C2CC2)cc1C | Somatostatin receptor type 5 (SSTR5, Homo sapiens, UniProt P35346, I202A) | cAMP level, antagonist, GloSensor | AD293 | I202A mutant, bandwidth 5.39, together with: CST17 EC80 and forskolin | 8.91 |
| O=C(NS(=O)(=O)c1cccs1)c1cc2ccccc2n1Cc1ccc(Br)c2ccccc12 | Solute carrier family 2, facilitated glucose transporter member 9 (Mus musculus, UniProt Q3T9X0) | transport, inhibitor | – | – | 11000 ± 1330 |
| CN(C)c1nc(N)c(C(=O)NC(=N)N)nc1Cl | CatSper channel complex (Homo sapiens, UniProt Q7RTX7+Q86XQ3+Q8NEC5+Q96P56) | calcium influx, inhibitor, FLIPR | human sperm | together with: high pH, high potassium | 59000 |
| Cc1nn(-c2cccc(N)c2)c(=O)c2cnc(Nc3ccc(N4CCNCC4)cc3)nc12 | PRKCA | enzyme activity, inhibitor | – | – | > 10000 |
| CC(C)C[C@H](NC(=O)c1ccccc1)C(=O)N[C@@H](CC(C)C)C(=O)N[C@H](/C=C/S(C)(=O)=O)Cc1ccc(CN)cc1 | PSMB6 | competitive ABPP | Raji cell lysate | – | > 10000 |

| Compound | target | assay | system | conditions | IC50 [nM] |
| --- | --- | --- | --- | --- | --- |
| Nc1ncc(-c2cc(-c3cnn(CC(F)(F)F)c3)ncc2F)nc1C(=O)NC1CNCC(F)C1 (centres unmarked) | Tyrosine-protein kinase Mer (MERTK, Homo sapiens, UniProt Q12866) | enzyme activity, inhibitor, radiometric | – | – | 52 |
| C1=[N+]2CCC[N+]3=Cc4ccc5[n]4[Au-]23[n]2c1ccc2-c1nc2ccccc2nc1-5.F[P-](F)(F)(F)(F)F | DNA topoisomerase 1 (TOP1, Homo sapiens, UniProt P11387) | enzyme activity, inhibitor | – | – | 8000 |
| CC(=O)N1c2ccc(-c3ccc(CNC(=O)c4cn5cc(-c6cnc(N)nc6)nc(N6CCOCC6)c5n4)cc3)cc2CC[C@@H]1C | DNA-dependent protein kinase catalytic subunit (PRKDC, Homo sapiens, UniProt P78527) | enzyme activity, inhibitor, radiometric | – | – | ~500 |
| COc1cc(-n2cc3cccc(C(N)=O)c3n2)cc(C)c1C1CCCC(O)(CCO)C1 (centres unmarked) | PARP1 | enzyme activity, inhibitor, radiometric | – | – | 0.55 |
| CNC(=O)c1ccc(-c2cccc3c2OC(CN)C3)cc1 (centres unmarked) | Beta-1 adrenergic receptor (ADRB1, Homo sapiens, UniProt P08588) | cAMP level, antagonist, SNAP-tagged EPAC cAMP sensor | HEK cells | together with: isoproterenol 50 nM | 25100 |
| C[C@H](CCC(=O)O)[C@H]1CC[C@H]2[C@@H]3[C@@H](O)C[C@@H]4C[C@H](O)CC[C@]4(C)[C@H]3CC[C@]12C | Hepatic sodium/bile acid cotransporter (SLC10A1, Homo sapiens, UniProt Q14973) | preS1 binding, inhibitor, fluorescence | HepG2-hNTCP-C4 | together with: myristoylated preS1(2-48)-TAMRA | > 80000 |
| O=C(Nc1cc(-c2ccc(Cl)cc2)[nH]n1)c1cccs1 | Cyclin-dependent kinase 2, with cyclin A (CDK2, Homo sapiens, UniProt P24941) | radiometric | – | together with: 1 µM ATP | 3500 |
| CCN(CC)CC(=O)Nc1cccc(-n2cc(-c3ccc4ccc(-c5cn(-c6cccc(NC(=O)CN(CC)CC)c6)nn5)cc4c3)nn2)c1 | PRKCA | enzyme activity, inhibitor | – | – | > 10000 |
| COc1cc(-n2cc3cc(F)cc(C(N)=O)c3n2)cc(Cl)c1C1CC(O)(CCO)CC2CCCC21 (centres unmarked) | PARP1 | enzyme activity, inhibitor, radiometric | – | – | 0.13 |
| COCCN(C)C(C)C(=O)NC(Cc1ccc(-c2ccccc2)cc1)B(O)O (centres unmarked) | Proteasome subunit beta type-10 / Proteasome subunit beta type-3 (Homo sapiens, UniProt P40306+P49720) | β2i activity, inhibitor | – | immunoproteasome, together with: Ac-KQL-AMC | > 10000 |
| Cc1cc(C)c(S(=O)(=O)N(CC(=O)O)c2ccc(Nc3ccnc(N4CCCC4)n3)cc2)c(C)c1 | RAC-alpha serine/threonine-protein kinase (AKT1, Homo sapiens, UniProt P31749) | enzyme activity, inhibitor | – | – | > 100000 |
| Cc1c(COc2cc(OCc3cccc(C#N)c3)c(CNCCO)cc2Cl)cccc1-c1cccc(OCCCCCCC(=O)NO)c1 | HDAC8 | enzyme activity, inhibitor | – | – | > 1000 |
| CC(C)(C)c1cccc(OS(=O)(=O)Oc2cc(F)cc(C(=O)NO)c2)c1 | HDAC8 | enzyme activity, inhibitor, fluorescence | – | – | 6960 |
| O=C1/C(=N\c2ccc(Cl)cc2Br)c2ccccc2N1Cc1ccccc1 (mixture of isomers) | PIK3CB | enzyme activity, inhibitor, ADP detection | – | – | 328 |
| CCCCCCC#Cc1cncc(-c2nnc(SCc3cc([N+](=O)[O-])cc([N+](=O)[O-])c3)n2C)c1 | mraY (Staphylococcus aureus, UniProt Q2FZ93) | enzyme activity, inhibitor | – | – | 171000 |
| O=C1/C(=N\c2ccccc2Br)c2ccccc2N1Cc1ccc([N+](=O)[O-])cc1 | PIK3CB | enzyme activity, inhibitor, ADP detection | – | – | 46.8 |
| Cc1nc(Nc2ccc3c(c2)/C(=C/c2ccccc2Cl)C(=O)N3C)c2ccccc2n1 | PIK3CB | enzyme activity, inhibitor, ADP detection | – | – | > 1000 |
| Fc1ccc(Nc2nc(NC3CCCCC3)c3ccccc3n2)cc1F | Beta-2 adrenergic receptor (ADRB2, Homo sapiens, UniProt P07550, Q170L) | β-arrestin2 recruitment, antagonist, BRET | HEK293 | mutant Q170L, together with: isoprenaline 1 µM | 1260 |
| CCCCn1c(NN)nc2cc3ccccc3cc2c1=O | Genome polyprotein protease | enzyme activity, inhibitor, FRET | – | – | 9120 |
| O=C(CCc1ccco1)N1C(=O)C2(NC(c3ccc(F)cc3)C3(C(=O)Nc4ccccc43)N2Cc2ccc(F)cc2)c2ccccc21 (centres unmarked) | PIK3CB | enzyme activity, inhibitor, ADP detection | – | – | 962 |

For quick reference, copied from above:
| Compound | target | assay | system | conditions | IC50 [nM] |
| --- | --- | --- | --- | --- | --- |
| Cc1cc(C)c(S(=O)(=O)N(CC(=O)O)c2ccc(Nc3ccnc(N4CCCC4)n3)cc2)c(C)c1 | RAC-alpha serine/threonine-protein kinase (AKT1, Homo sapiens, UniProt P31749) | enzyme activity, inhibitor | – | – | > 100000 |
| Cc1c(COc2cc(OCc3cccc(C#N)c3)c(CNCCO)cc2Cl)cccc1-c1cccc(OCCCCCCC(=O)NO)c1 | HDAC8 | enzyme activity, inhibitor | – | – | > 1000 |
| CC(C)(C)c1cccc(OS(=O)(=O)Oc2cc(F)cc(C(=O)NO)c2)c1 | HDAC8 | enzyme activity, inhibitor, fluorescence | – | – | 6960 |
